Assay results of several laboratories.
Every numbered part comes from another study and shows a few of its results, in no order.

Set 1
Target: Histone acetyltransferase KAT6A, winged helix 2, GST fusion (KAT6A, Homo sapiens, UniProt Q92794, residues 85-181)
Technique: protein binding microarray
Form: double-stranded DNA, one strand shown
Medium: in vitro
Concentration: not given
Notes: 8-mer, flanks averaged, mean of 2 arrays, mostly near background
Reference: not given
Direction: higher = stronger binding
Endpoint: E-score
Construct (chain): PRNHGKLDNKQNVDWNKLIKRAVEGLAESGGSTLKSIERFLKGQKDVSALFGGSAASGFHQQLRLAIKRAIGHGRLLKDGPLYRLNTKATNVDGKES
GCAGTACA: 0.0486
AATAGTAA: -0.0811
AACCAGGA: -0.0902
ATTTACCC: -0.0533
ACTAGTTA: -0.114
ACTTCCTG: -0.177
ACCTCTTG: -0.0161
AGGATCAC: 0.0153
AACCCATT: -0.0974
CACATGTG: -0.301
AGACTAAC: -0.273
ATCACCCC: -0.177
TGCAACCA: -0.00098
AGCCCAAA: 0.0192
ACCCAGTC: 0.0826
CAGGTCCA: -0.0979
AGAGGCAA: 0.00954

Set 2
Target: Interferon regulatory factor 5, full length, phosphomimetic (IRF5, Homo sapiens, UniProt Q13568-2, residues 1-514, K96S/S451D/S453D/S456D/S462D)
Technique: protein-binding microarray
Form: double-stranded DNA, one strand shown
Medium: in vitro
Concentration: 250 nM
Notes: 60-bp whole probe
Together with: salmon DNA 0.4 mg/ml
Reference: random background probes
Direction: higher = stronger binding
Endpoint: log fluorescence
Constant ends, left off below: GCCTAGCAC … GTCTTGATTCGCTTGACGCTGCTG
GACGGATTCGGTATCGGGACGTGCTAG: 1.62 z-score
TTAGGTTTCGGCACTGGGTTAGTGCTA: 6.23 z-score
TTAGCTTTCAGTTCCGATTAGTGCTAG: 6.35 z-score
GACGTTCTCCTTTTCCTGACGTGCTAG: 0.29 z-score
GACGAACTGAGACTGGAGATGTGCTAG: -0.534 z-score
TTAGGTTTCGGGAATGGGTTAGTGCTA: 7.06 z-score
GACGGTATGGACTATCGGGACGTGCTA: 0.967 z-score
GACGGACTGGGTCTCGGCACGTGCTAG: -0.683 z-score
TTAGGTTCCCTATTCCTTTAGTGCTAG: 0.198 z-score
GACGGTTTCTGTTTCGGGACGTGCTAG: 7.76 z-score
TTAGATTTCAGACTGAATTAGTGCTAG: 0.752 z-score
TTAGGACTGGGTCTCGGTAAGTGCTAG: -0.239 z-score
AGTGGTATAGCACTAAGGGAGTGCTAG: -0.191 z-score
GACGGACTGGACTATCGGGAGGTGCTA: 0.667 z-score
TTAAATTTCGGGTTTCGATTAGTGCTA: 9.66 z-score
TAAGATATCAGTCTCGATTAGTGCTAG: 1.75 z-score
AACGATTTCAGTATCGAGACGTGCTAG: 4.05 z-score
TCATTTTTCTAACCCATACTGTGCTAG: 0.698 z-score
GACGGTATCGACACTGGGGACGTGCTA: 1.47 z-score

Set 3
Target: Centromere-binding protein 1, full length, N-terminal tag (CBF1, Saccharomyces cerevisiae, UniProt P17106, residues 1-351)
UniProt P17106, sequence (whole entry, looked up): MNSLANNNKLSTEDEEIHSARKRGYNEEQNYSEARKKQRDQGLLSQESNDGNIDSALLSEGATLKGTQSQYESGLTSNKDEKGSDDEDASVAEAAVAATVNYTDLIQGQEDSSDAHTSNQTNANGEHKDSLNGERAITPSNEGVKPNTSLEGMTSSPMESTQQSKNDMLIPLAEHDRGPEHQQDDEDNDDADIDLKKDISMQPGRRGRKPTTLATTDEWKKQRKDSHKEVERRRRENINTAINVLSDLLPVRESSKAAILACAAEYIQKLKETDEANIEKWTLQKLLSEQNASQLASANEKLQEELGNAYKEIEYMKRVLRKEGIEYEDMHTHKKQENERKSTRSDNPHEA
Technique: protein-binding microarray
Form: double-stranded DNA, one strand shown
Medium: in vitro
Concentration: 0.8 µM
Notes: whole 60-bp probe, no competitor
Direction: higher = stronger binding
Endpoint: fluorescence intensity
Constant ends, left off below: … GTCTTGATTCGCTTGACGCTGCTG
CTATCAATTCTTCATCACCACCGTTCCATGCCCTTC: 551 a.u.
CTAGTACCATGCAGCCATCACTACATACTAGCATTC: 521 a.u.
CTATAGTACCGTCCGCACATGATGTCATTTCCCTTC: 979 a.u.
GAATTAGCGCCTCATGTGAGCAGGCCATTGTGGTAG: 855 a.u.
CTATTTGCAACACGATGCGTGACGGTAATGCTTTTC: 683 a.u.
CTAAAAATGAAGAAATGCGTGATCGGAAATTACTTC: 1070 a.u.
GAATATTGTTGGAGTTACGTGAGTTCTCGCATATAG: 535 a.u.
CTATCCTTTTCTGGTCACGTGGTCTTAGAACACTTC: 27500 a.u.
GAAGGCCGAACACAGCACGTGAAAGAACTCTCATAG: 3570 a.u.
TGTACGAAGCTATTTAACGTGTTTATAGTAGTTAGG: 521 a.u.
CTATGTTACATCTGTCACGGCATTCCAGCTGTATTC: 616 a.u.
CTACAGTCACTCAGTCAGCTGATGCGATGCGATTTC: 2600 a.u.
CCTAACTACTATATTCACGTGTAATAGCTTCGTACA: 2550 a.u.
GAAGAGTCAATGAGTGGTGTGACCCCAATACCATAG: 1090 a.u.
GAATTTTTAAAAAAACCTCACATGTAGGCGATTTAG: 755 a.u.
TGTACGAAGCTATGTGTCATGCCTATAGTAGTTAGG: 633 a.u.
TGTACGAAGCTATTGACCGTACTTATAGTAGTTAGG: 508 a.u.
CTACCTTTTACAGGTGACGACTCTCCTTTTCCGTTC: 593 a.u.
CCTAACTACTATATAGAGGTGACATAGCTTCGTACA: 512 a.u.

Set 4
Target: RNA binding protein fox-1 homolog 2, RRM domain, GST-SBP tag (RBFOX2, Homo sapiens, UniProt O43251-10, residues 100-194)
Technique: RNA Bind-n-Seq
Form: RNA
Medium: in vitro
Concentration: 365 nM
Notes: natural RNA segment, single round, ends assumed
Reference: no-protein control
Direction: higher = stronger binding
Endpoint: RBNS enrichment (R)
Constant ends, left off below: GGGAGUUCUACAGUCCGACGAUC … UGGAAUUCUCGGGUGCCAA
Construct (chain): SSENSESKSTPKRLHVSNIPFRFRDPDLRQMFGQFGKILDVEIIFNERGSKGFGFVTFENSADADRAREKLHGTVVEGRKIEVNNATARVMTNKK
UCCAUGAUUCUGAAGCAUGCACACCUCUGAAGACCCCUGCAUGAAAAUAACCUCCAAGGACCCUCUGACCCCAUCGACCUGGGCCCUGCCCACACAACAGUCUGAGCAAG: 19.8
UUUUGUUGGUUUUGAAACACUCCCCCAGUUCUAGCUGUACCCCAGAAAAACAAAUACUUUCUUGAUCAAUAUGUAAAGCCAGGAAGUUGGUAAGAGUGACUGAGUAGCCU: 0.324
CUGCGUGCCCCUGAACCUCUGUGCAGCCCGGAAGGCUGAUGUACAGGUGUACCUCAAUCCACAUUACAGCCAUGCUCCUAAUGUACAUGGACAUUUUUGUAACUCAGCUC: 0.444
CCUCCCCUGGGAGUUAGUGAUUUGGGGGACCAGCCUCACUGCAGACUCCAGGCUCUGACAGGUAGUGGCCUGGGCCCAGCUGCAAGCCAUGCUCCCCUGAGCUAUAACCC: 0.334
UAUAGGAAAUAUUUUCAUUGAGUCCAAAAUACCACUGUUUUGUUGAUGGACUUGAAUGCAUUUUUGUCUCUUCUUGAUGAAGCGGCUUUGCCGCAGCAAAUGAGGCUUCU: 0.38
GCUGUUGUCUGUGCCCCAGAGGUGCUACCUGUAGACAGGGACCAACUCCAUGUGUGUGUGUUAAGUGUUUGACUCCAAUUAAGACUCCCAAGCAAAUCCUGCAUAUUCCA: 0.546
ACUGUAUCAUAUAACAGAAUGAUCCAGGGGAGAUUAAGCUUUGGGCAAGGGCUAUUUACCAGGGCUUAAAUGUUGUGUCUAGAAUUAAGUAUGGGCAUAAACUGGCUUCU: 0.324
CUGGGGCUCCUUCCACGGACCCCAGCUGUGCCCUCAAGUUGGUGAUUCUAGUUUGGGCUCAAUGAAGGAAGCAGGAAGGGGCAGCAACUGAAUGUCACUCUCCACUGCUG: 1.02

For quick reference, copied from above (set 1):
ACCTCTTG: -0.0161
AGGATCAC: 0.0153
AACCCATT: -0.0974
CACATGTG: -0.301
